# Experimental data collected from several papers.
# Parts stem from different laboratories: compare values within a part only. Changes are numbered by the printed parent chain.

# Set 1
# Target: CCNB1, cyclin fold, Cln2 fusion (human)
# Method: yeast growth competition, sequencing
# Medium: yeast
# Notes: weak parent motif
# Relative to: not given
# Direction: higher = stronger binding
# Starting sequence: E2F3 docking peptide (human); PPAKRRLELGESG
Variant,normalised enrichment score
PPAKARLELGESG [R5A],-0.0848
PPAKRRLELAESG [G10A],0.88
PPAKRRLALGESG [E8A],0.528
PPAKRRAELGESG [L7A],0.51
PPAKKRLELGESG [R5K],-0.637
PPAARRLELGESG [K4A],0.426
PPAKRALELGESG [R6A],0.607

# Set 2
# Target: Histone acetyltransferase KAT6A, both winged helices, GST fusion (KAT6A, Homo sapiens, UniProt Q92794, residues 1-181)
# Method: protein binding microarray
# Form: double-stranded DNA, one strand shown
# Medium: in vitro
# Tested at: not given
# Notes: 8-mer, flanks averaged, mean of 2 arrays, mostly near background
# Relative to: not given
# Direction: higher = stronger binding
# Construct (chain): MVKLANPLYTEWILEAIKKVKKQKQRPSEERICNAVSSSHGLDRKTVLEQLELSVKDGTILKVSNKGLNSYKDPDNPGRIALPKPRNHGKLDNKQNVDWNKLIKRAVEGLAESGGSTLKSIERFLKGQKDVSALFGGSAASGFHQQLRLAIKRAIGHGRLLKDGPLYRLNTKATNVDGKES
Sequence,E-score
GGCGCCCA,0.167
GGGTGTCA,-0.0563
TGGTTTAA,-0.0881
GGCGCGCA,0.356
AACAACAG,-0.0711
ACCCCCAA,-0.2
AACGTCAT,0.0815
AAATGACC,-0.131
CTACATAC,2e-05
CTGTAAGC,-0.0643
ACCATAAT,-0.0956
CGCTCGAG,0.156
GATTAAGA,-0.0714
GGACAAGA,0.0399
AAAGTACC,-0.0837
CCTTGATC,-0.153

# Set 3
# Target: Max dimerization protein 1, bHLH-zipper, MAX partner unstated (MXD1, Homo sapiens, UniProt Q05195, residues 56-136)
# Method: protein-binding microarray
# Form: double-stranded DNA, one strand shown
# Medium: in vitro
# Tested at: not given
# Notes: k-mer, scored over probes, only values ≥0.25
# Direction: higher = stronger binding
# Target sequence (chain): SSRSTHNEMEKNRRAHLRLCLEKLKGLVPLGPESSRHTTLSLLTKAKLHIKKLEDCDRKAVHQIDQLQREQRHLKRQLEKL
Sequence,E-score
CACGCTAC,0.311
CCGCACGC,0.371
CATGGTGA,0.272
ACACGCTC,0.305
CACGTGAA,0.475
CATGCCCA,0.324
CGTGTTCA,0.278
CACATGTG,0.474
CAGCGTGA,0.255
AGCATGTC,0.411
CATGCGTC,0.412
ACGTGTTA,0.432

# Set 4
# Target: RING finger protein unkempt homolog, zinc fingers 1-6, SBP tag (UNK, Homo sapiens, UniProt Q9C0B0, residues 30-357)
# Sequence of UniProt Q9C0B0 (30-357, looked up): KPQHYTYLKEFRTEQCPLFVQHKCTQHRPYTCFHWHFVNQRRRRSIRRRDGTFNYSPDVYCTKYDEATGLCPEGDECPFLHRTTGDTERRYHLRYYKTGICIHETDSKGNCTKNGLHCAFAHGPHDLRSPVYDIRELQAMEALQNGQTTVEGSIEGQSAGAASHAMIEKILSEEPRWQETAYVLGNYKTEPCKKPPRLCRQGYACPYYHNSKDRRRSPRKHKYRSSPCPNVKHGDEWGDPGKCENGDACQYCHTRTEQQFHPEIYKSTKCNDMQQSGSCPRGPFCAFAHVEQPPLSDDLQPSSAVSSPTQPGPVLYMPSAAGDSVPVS
# Method: RNA Bind-n-Seq
# Form: RNA
# Medium: in vitro
# Tested at: 100 nM
# Notes: RNA with constant flanks, vertebrate orthologous sites, ends assumed
# Relative to: input RNA pool
# Direction: higher = stronger binding
Sequence,bound/input enrichment [ratio]
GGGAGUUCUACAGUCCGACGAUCUUACAGUCAUUGAUGGACUCUAUUUUUUUAUUAUUACUUGGACCUUGGUCGUUUUUAUACUAGCAACGAAAAAUGUCUUGUUUUAAUUUGUUUUUUGUUUUUUUUUUUGGGGGGGGGGAACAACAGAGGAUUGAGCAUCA,4.56
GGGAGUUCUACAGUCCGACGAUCAGGGACGCUUUGAUGUAAAAAUUGAAGUUAAGAGCUGAUCACAAGCACAAAUCUUUCCCACUAGCCAUUUAAAAAGUUAAAGAUACAAAAACCUACUAGUCUUGAACAAACUGUCAUACGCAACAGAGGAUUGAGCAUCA,1.55
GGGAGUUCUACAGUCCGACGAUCUUCAGGCUCAACUGACUGUUUCACAACAUUCCUUACACAGCUAUUUAACAAGUACAGGGGGAGUUAAUUUUCAGGAUACAUCUAGGCACUCAGCAUUAUCUUGCAGCCCAGUUGAAGAUGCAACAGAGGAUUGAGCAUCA,0.8
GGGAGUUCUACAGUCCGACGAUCCAACUCAAUGGUUGAGGGCUCGGAACUCAAAAAGGUCCGCUCCAACUCUAGAAUAUACCAUAGGUAUUUUUUACUGGAUGCCGACAUGCAGAGCCUGAGGUGGGAGCCAUCGAAGAAAGACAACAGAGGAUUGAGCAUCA,0.145
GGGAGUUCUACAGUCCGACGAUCCUUUUUUUUUUGCACAUGACAGUGUUUGUAUUGAGGACCUUCCAAGGAAGAGGGAUGCUGUAGCAGUGGUGCCUGGGUGCCUGGCCUCCAGUGUCCCACCUCCUUCACCACCCCACUUGGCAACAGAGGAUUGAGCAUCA,0.286
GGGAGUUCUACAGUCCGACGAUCUCCCAGCACUCUGAUAAAAAGUGUGGACUGGUUGCUUGUAUUUUCCUUAUUCUUUUUAAUUAGCUUUAUUAUGUAUGCUACCAUUCGAACUGAGAGCAUUCGGUGGCUAAUUCCAGGACACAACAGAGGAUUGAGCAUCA,0.999
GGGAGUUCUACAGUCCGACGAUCUUCAGGCUCAACUGACUGUUUCACAGCAUUCCUUACACAGCUAUUUAACAAGUACAAGUGGAGUUAAUUUUCAGGAUACAUCUAGGCACUCAGCAUUAUCCUGCAGUCCAGUUGGAGAUGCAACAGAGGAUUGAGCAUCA,0.3
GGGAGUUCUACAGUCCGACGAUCAUCUCUUAUUUUAUAUGUCCAAAAAAGGCUUUGAAUUUUUAAACAGUUGUUAGUUUUAAUUAGCUCUGCCCUCGUGAAGUAUUAUUAUAAUUCACCACAAACAGAUAUCUGUCUGAAUUACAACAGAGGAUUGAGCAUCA,0.627
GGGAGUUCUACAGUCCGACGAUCCAGUCCCCUGGGCUGGGACAGAUUUUUUUUUUAAAGUCUUGAAAUUUAAAACUGUGCUUGUAAGAGACAGUAACCUUUUGUCUUUUUUUUUUUUUUUUUUUUUUUAAACACCCCCACCUACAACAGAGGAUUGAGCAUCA,1.61
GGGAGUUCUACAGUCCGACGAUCGCCCCCCACUCCCUGUGAGAGGGAAUGGGGGAAGCCUGAUGACCCUCAGCUGUUCCAAUCUAGUAUUUUUUUUCUUUUUUAAAAUUACUGUAUUUAUUAUGACGAUGGUGACUCCCCAGUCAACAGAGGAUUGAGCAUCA,1.6
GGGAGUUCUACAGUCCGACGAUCAGCAACUCAAGGAUUGAGGACUGGUUUUACAAAUAUACCAAGUAGAUAUGGAACUAAUAAUAGAAUUGGACAACCAAGACCAUGAUGGACUCUAACUUAUUUUUAUGAGGAAUAUUGACUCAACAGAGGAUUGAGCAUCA,0.419

# Set 5
# Target: BATF, bZIP domain (human)
# Method: DHFR protein complementation
# Medium: yeast
# Notes: single substitutions, most at no-binding floor
# Relative to: wild-type JUN-FOS pair
# Direction: higher = stronger binding
# Starting sequence: JUN, bZIP domain (human); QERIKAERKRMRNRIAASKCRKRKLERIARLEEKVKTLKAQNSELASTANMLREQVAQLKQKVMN; partner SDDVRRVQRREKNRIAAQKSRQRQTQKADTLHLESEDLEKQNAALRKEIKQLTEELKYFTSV
Variant,binding fitness [natural log]
S43A,0.113
L38Q,-0.0932
L38G,-0.704
L52W,-1.11
L52K,-0.948
L52S,-1.34
K34Y,-0.0195
A40T,0.125
K39H,-0.131
S43D,-0.0203
T37P,-1.15
L45Q,-1.39
T48I,-0.133

# Set 6
# Target: Prothrombin, mature alpha-thrombin (F2, Homo sapiens, UniProt P00734)
# Method: aptamer microarray, sandwich
# Form: DNA with 2'F-ANA
# Medium: in vitro
# Tested at: 200 nM
# Notes: whole 15-mer aptamer, many near background
# Added: Cy3 exosite-II aptamer, 400 nM
# Direction: higher = stronger binding
# Sequence: GGTTGGTGTGGTTGG
Modification,mean fluorescence intensity [a.u.]
2'F-ANA at 1 2 4 6 9 10 11 12 15,62.4
2'F-ANA at 1 2 5 8 10 11 12 14 15,159
2'F-ANA at 2 6 9 10 11,111
2'F-ANA at 1 4 5 9 12 13 14 15,117
2'F-ANA at 2 3 4 6 7 8 10 13,192
2'F-ANA at 4 6 7 9 10 11 13,62.8
2'F-ANA at 1 2 3 4 6 8 9 10 11,77.8
2'F-ANA at 3 12 13 14 15,627
2'F-ANA at 1 2 3 4 5 6 7 8 10 12 13,52.4
2'F-ANA at 2 3 4 5 10 11 12 13 14,75.9
2'F-ANA at 1 5 7 8 9 10 11 12 13 15,48.7
2'F-ANA at 1 3 6 8 11 12 15,438
2'F-ANA at 3 7 9 10 14,463
2'F-ANA at 4 5 12 14 15,49.7
2'F-ANA at 1 4 10 13 15,81.8
2'F-ANA at 2 4 7 9 12 15,633
2'F-ANA at 1 2 3 5 8 9 14,49.7
2'F-ANA at 1 2 5 7 8 10 11 14,46.2
2'F-ANA at 2 3 6 7 8 9 10 11 13 14,235
2'F-ANA at 4 5 6 7 11 12 15,93.2
2'F-ANA at 2 5 6 8 12 14,49.3
2'F-ANA at 1 4 6 8 11 12 13,171
2'F-ANA at 1 2 5 7 11 13 14,42.6
2'F-ANA at 3 6 7 8 9 11 13 14,460
2'F-ANA at 3 4 6 7 11 13 14,298

# Set 7
# Target: ABI1, truncated, D143A, DHFR fusion (Arabidopsis thaliana)
# Method: DHFR PCA, deep sequencing
# Medium: yeast
# Notes: methotrexate growth selection, single substitutions
# Added: (+)-ABA 17 µM
# Relative to: wild-type fitted maximum
# Direction: higher = stronger binding
# Starting sequence: PYL1, truncated, DHFR fusion (Arabidopsis thaliana); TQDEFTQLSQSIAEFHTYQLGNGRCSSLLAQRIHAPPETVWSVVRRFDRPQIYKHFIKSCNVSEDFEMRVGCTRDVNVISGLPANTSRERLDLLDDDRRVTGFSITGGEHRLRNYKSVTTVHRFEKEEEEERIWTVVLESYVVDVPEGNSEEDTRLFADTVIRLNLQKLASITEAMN; partner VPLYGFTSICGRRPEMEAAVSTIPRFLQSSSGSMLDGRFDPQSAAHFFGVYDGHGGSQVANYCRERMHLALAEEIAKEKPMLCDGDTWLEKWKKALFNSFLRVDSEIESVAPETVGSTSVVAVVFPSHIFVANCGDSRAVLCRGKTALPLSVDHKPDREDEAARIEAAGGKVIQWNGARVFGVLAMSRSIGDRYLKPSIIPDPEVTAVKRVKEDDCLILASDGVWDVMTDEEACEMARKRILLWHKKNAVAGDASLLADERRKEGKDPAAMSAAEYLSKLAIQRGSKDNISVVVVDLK
Variant,relative binding score
Q7N,78.8%
R90V,71.4%
L156T,89.6%
L94P,-4.36%
F56Y,53.7%
A35W,-16.9%
H55Q,103%
L94F,87.4%
D92A,3.11%

# Single results of other studies
Substance,target,assay,test system,setting,how to read,measurement,result
"PhoQ, residues 284 288 289 292 302 303 NLALSC","PhoP, residues 12 14 15 18 19 AQCLL (Escherichia coli, UniProt P23836)","Sort-seq, refers to: YFP reporter",E. coli,"PhoQ-PhoP variant library, added: 10 µM Mg2+","relative to: high Mg2+ state, higher = stronger signaling",fold induction,0.646

# For quick reference, copied from above (set 7):
Variant,relative binding score
Q7N,78.8%
R90V,71.4%
L156T,89.6%
L94P,-4.36%
F56Y,53.7%
A35W,-16.9%
H55Q,103%
L94F,87.4%
D92A,3.11%
